Assay results from different studies.
Each numbered part is a random draw from the data of one study; scales do not carry over between parts.

Block 1
Target: Ras GTPase-activating protein-binding protein 1, full length (G3BP1, Homo sapiens, UniProt Q13283)
UniProt Q13283, sequence (whole entry, looked up): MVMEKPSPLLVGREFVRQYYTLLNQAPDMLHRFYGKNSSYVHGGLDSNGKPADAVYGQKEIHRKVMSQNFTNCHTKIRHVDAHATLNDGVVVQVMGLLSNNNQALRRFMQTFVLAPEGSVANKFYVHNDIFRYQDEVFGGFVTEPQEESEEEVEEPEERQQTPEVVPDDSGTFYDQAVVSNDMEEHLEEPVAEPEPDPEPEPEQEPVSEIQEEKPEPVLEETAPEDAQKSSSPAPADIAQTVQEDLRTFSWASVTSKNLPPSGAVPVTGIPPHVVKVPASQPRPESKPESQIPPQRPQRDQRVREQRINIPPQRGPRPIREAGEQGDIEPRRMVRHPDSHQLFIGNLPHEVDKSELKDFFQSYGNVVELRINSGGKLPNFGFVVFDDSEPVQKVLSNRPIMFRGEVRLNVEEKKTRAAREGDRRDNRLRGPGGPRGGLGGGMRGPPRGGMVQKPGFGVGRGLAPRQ
Technique: RNA Bind-n-Seq
Molecule type: RNA
Sample: in vitro
Concentration: 200 nM
Notes: whole 134-nt RNA, ends assumed
With: 150 mM KCl
Relative to: input library
Direction: higher = stronger binding
The log2 enrichment of `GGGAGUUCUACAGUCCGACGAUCGUCCUGUGCUACACAUCGUAUGUACCGAAUCGGCCCCCGGGCCCCCGGGGCCCCCGGGAAAGUAUUAUGUUACGCCGUUCGGAUCUGCACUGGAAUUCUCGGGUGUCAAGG` is reported as -0.874.
The log2 enrichment of `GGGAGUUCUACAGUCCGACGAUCUGGCCCUGGUGGCAUGCGGGGAGGAAGAGGUGGCCUCAUGGAUCAUGGUGGUCCCGGUGGAAUGUUCAGAGGUGGCCGUGGUGGAGACAGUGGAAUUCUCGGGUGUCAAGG` is reported as 0.158.
`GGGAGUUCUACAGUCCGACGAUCCUGUGCUACACAUCGUAUGUACCGAAUCGGGGUUUUUUUGGGGUUUGGGGUUUUUUUGGGGAAAGUAUUAUGUUACGCCGUUCGGAUCUGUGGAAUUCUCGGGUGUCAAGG` has a log2 enrichment of -0.286.
The log2 enrichment of `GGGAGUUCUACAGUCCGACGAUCCAAGUCCUGUGCUACACAUCGUAUGUACCGAAUCGGAAAAGGAAAAGGGAAAAGGGAAAGUAUUAUGUUACGCCGUUCGGAUCUGCACUUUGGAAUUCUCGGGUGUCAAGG` is reported as -1.04.
`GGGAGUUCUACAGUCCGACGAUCUGGAAGCUCAUACGACUGUGAAAGAAGCUGAGGAUGACAACAUCUCGGUCACAAUCCAGGCUGAAGAUGCCAUCACUCUGGAUUUUGAUGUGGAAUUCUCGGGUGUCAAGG` has a log2 enrichment of -1.36.
For `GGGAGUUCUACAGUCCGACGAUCCAAGUCCUGUGCUACACAUCGUAUGUACCGAAUCGGAGGUUUUUGGUUUUUUUGGAAAGUAUUAUGUUACGCCGUUCGGAUCUGCACUUCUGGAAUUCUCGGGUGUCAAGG`, the log2 enrichment was -1.1.
For `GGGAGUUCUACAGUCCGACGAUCAGUCCUGUGCUACACAUCGUAUGUACCGAAUCGGUUUUUUUGGUUUUUUUGGUUUGGAAAGUAUUAUGUUACGCCGUUCGGAUCUGCACUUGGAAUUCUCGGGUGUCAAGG`, the log2 enrichment was -1.33.

Block 2
Target: Histone acetyltransferase KAT6A, winged helix 1, GST fusion (KAT6A, Homo sapiens, UniProt Q92794, residues 1-85)
Technique: protein binding microarray
Molecule type: double-stranded DNA, one strand shown
Sample: in vitro
Concentration: not given
Notes: 8-mer, flanks averaged, mean of 2 arrays, mostly near background
Relative to: not given
Direction: higher = stronger binding
Target sequence (chain): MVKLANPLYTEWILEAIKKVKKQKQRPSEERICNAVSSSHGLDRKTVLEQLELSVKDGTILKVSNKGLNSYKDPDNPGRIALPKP
`CACGCACC` has an E-score of 0.262.
`AGACCACC` has an E-score of -0.0589.
For `CCCAAGAG`, the E-score was -0.279.
For `GTCAGTGA`, the E-score was -0.105.
The E-score of `AATCTTCA` is reported as -0.126.
For `GCGACTGA`, the E-score was 0.103.
For `GTTTGGGA`, the E-score was -0.246.
For `AACGACAC`, the E-score was -0.212.
The E-score of `TCCGACGA` is reported as 0.103.
The E-score of `AGCTGAGG` is reported as -0.248.
`ACGGGCAT` gave an E-score of 0.295.
With `AGCTTAGC` the E-score was -0.00856.
`GTCCGTAA` gave an E-score of 0.236.

Block 3
Target: Interferon regulatory factor 5, full length, phosphomimetic (IRF5, Homo sapiens, UniProt Q13568-2, residues 1-514, S451D/S453D/S456D/S462D)
Technique: protein-binding microarray
Molecule type: double-stranded DNA, one strand shown
Sample: in vitro
Concentration: 940 nM top
Notes: 60-bp whole probe
With: salmon DNA 0.4 mg/ml
Relative to: random background probes
Direction: higher = stronger binding
Shared flanks, not repeated: GCCTAGCAC … GTCTTGATTCGCTTGACGCTGCTG
`TTGGGACTGGACTATCGGTTAGTGCTA`: “fitted relative affinity” -0.203 z-score.
For `GACGGACCGGGTCTCGGGACGTGCTAG`, “fitted relative affinity” read 0.283 z-score.
Under “fitted relative affinity”, `TCAAGTTTCTCTTTCCTACTGTGCTAG` is recorded as 4.35 z-score.
`TTAGGACTGGACACTGGCTTAGTGCTA` — result for “fitted relative affinity”: -0.497 z-score.
Under “fitted relative affinity”, `TCACATTGAGATTTCCAACTGTGCTAG` is recorded as -0.0181 z-score.
For `GACGGTATCGACTCTGGGGACGTGCTA`, “fitted relative affinity” read 3.71 z-score.
`TTAGGACTGGGGACTGGGTTGGTGCTA`: “fitted relative affinity” -0.258 z-score.
For `TCATTGTTGTTTTTTGGACTGTGCTAG`, “fitted relative affinity” read 1.01 z-score.
Under “fitted relative affinity”, `TTAGGTTTCCTTATCCTTGAGTGCTAG` is recorded as 1.69 z-score.
For `TCATATTAAAATTTCATACTGTGCTAG`, “fitted relative affinity” read 0.467 z-score.
Under “fitted relative affinity”, `TCAAGTCTCATATTTATACTGTGCTAG` is recorded as 1.98 z-score.
`TTAGGTTCCGGTTTCAGTTAGTGCTAG` — result for “fitted relative affinity”: 5.49 z-score.

Single results of other studies
`PhoQ, residues 284 288 289 292 302 303 TTCLQL` gave a fold induction of 9.12 (PhoP, residues 12 14 15 18 19 GQALL (Escherichia coli, UniProt P23836); Sort-seq, refers to: YFP reporter; E. coli; PhoQ-PhoP variant library, with: 10 µM Mg2+; relative to: high Mg2+ state, higher = stronger signaling).

For quick reference, copied from above (block 3):
`TTGGGACTGGACTATCGGTTAGTGCTA`: “fitted relative affinity” -0.203 z-score.
Under “fitted relative affinity”, `TCAAGTCTCATATTTATACTGTGCTAG` is recorded as 1.98 z-score.
For `TCATTGTTGTTTTTTGGACTGTGCTAG`, “fitted relative affinity” read 1.01 z-score.
Under “fitted relative affinity”, `TTAGGTTTCCTTATCCTTGAGTGCTAG` is recorded as 1.69 z-score.
For `GACGGTATCGACTCTGGGGACGTGCTA`, “fitted relative affinity” read 3.71 z-score.
